# Results from different studies.
# Protocols differ between the studies behind these lines. Values joined by “and” are separate records of one study, mostly repeats; a detail may differ. Numbers after ± are the reported error.
# GABA-A receptor; alpha-1/beta-3/gamma-2: GABA-A receptor; alpha-1/beta-3/gamma-2 (Homo sapiens, UniProt P14867+P18507+P28472)
# Sequence of UniProt Q01959 (whole entry, unmodified, looked up): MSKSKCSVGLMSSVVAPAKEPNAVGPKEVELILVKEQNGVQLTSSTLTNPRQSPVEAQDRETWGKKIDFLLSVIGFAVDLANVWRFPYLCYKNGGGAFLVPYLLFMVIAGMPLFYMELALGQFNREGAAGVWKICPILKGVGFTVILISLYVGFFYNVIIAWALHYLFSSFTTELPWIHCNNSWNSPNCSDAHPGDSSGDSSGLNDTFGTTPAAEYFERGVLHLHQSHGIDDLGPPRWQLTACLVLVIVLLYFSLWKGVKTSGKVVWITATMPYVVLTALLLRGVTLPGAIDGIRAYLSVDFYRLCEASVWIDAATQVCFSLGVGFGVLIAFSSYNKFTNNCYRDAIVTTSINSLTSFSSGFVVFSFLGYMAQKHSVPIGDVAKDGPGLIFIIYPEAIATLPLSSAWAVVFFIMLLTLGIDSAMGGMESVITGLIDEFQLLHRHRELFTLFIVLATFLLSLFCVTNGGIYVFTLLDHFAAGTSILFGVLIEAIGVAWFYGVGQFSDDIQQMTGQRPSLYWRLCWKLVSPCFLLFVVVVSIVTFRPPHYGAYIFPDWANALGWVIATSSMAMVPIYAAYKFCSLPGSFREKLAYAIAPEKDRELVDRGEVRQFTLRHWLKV
# Sequence of UniProt P14867 (whole entry, looked up): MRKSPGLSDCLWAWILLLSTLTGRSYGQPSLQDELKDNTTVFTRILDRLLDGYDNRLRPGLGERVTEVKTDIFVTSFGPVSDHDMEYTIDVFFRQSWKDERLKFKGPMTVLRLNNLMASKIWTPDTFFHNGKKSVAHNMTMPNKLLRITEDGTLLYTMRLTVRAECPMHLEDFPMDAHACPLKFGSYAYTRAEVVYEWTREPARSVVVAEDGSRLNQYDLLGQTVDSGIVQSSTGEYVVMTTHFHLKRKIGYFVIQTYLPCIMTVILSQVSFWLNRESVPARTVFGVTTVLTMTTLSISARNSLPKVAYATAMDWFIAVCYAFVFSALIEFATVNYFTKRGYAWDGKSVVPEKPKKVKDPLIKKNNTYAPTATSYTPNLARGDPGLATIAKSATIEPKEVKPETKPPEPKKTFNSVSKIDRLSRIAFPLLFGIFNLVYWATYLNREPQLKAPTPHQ
# Sequence of UniProt P18507 (whole entry, looked up): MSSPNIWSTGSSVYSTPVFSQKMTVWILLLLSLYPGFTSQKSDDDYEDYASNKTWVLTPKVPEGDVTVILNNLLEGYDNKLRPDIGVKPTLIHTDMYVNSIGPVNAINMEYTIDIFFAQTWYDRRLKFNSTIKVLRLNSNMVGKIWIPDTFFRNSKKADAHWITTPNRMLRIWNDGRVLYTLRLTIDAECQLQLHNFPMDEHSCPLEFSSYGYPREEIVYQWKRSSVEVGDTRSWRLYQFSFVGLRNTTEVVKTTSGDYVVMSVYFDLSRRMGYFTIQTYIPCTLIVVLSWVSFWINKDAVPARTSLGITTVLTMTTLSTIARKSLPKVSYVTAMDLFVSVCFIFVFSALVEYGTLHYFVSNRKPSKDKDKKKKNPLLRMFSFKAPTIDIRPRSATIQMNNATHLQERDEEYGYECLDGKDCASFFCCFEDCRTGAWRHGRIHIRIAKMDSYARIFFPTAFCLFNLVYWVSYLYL
# Sequence of UniProt P28472 (whole entry, looked up): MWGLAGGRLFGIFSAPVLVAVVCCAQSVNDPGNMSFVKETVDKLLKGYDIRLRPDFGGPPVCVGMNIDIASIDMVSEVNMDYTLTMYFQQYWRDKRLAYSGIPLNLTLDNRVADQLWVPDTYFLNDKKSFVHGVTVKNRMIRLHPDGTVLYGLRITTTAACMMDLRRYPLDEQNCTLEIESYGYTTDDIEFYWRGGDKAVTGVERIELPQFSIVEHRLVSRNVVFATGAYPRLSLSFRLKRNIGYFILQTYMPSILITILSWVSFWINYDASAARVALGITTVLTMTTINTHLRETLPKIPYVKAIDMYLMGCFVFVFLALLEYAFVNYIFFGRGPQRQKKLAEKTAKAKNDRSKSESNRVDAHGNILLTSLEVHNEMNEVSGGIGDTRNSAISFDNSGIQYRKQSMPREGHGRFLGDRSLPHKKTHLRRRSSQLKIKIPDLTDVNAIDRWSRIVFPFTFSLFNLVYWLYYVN
# Sequence of UniProt P9WIL3 (whole entry, looked up): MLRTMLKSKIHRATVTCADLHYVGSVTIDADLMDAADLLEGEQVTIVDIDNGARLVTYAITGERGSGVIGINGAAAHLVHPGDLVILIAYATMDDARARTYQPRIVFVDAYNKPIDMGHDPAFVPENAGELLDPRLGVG
# Sequence of UniProt P21554 (whole entry, unmodified, looked up): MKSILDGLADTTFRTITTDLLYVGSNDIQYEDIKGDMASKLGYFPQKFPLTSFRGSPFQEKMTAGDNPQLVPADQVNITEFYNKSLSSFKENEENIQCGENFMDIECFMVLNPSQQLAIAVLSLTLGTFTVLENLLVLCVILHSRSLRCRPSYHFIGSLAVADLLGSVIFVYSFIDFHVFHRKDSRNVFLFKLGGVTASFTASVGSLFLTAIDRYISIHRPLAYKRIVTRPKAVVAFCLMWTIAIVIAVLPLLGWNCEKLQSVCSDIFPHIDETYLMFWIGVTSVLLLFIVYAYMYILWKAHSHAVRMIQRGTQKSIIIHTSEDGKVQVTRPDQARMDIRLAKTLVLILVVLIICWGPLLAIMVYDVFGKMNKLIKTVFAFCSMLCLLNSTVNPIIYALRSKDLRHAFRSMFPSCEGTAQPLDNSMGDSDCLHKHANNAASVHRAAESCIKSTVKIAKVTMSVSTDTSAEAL
# Sequence of UniProt Q9GZN0 (whole entry, looked up): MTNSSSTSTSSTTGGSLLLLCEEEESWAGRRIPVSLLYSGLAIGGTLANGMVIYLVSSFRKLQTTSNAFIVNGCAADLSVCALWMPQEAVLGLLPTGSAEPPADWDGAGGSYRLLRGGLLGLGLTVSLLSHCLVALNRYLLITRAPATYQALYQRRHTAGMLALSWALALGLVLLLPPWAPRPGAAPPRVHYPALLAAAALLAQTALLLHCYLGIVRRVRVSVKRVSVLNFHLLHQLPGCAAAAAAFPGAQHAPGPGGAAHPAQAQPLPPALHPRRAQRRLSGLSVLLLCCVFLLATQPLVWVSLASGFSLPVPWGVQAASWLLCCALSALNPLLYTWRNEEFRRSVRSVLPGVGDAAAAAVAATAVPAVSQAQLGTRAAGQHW
# Sequence of UniProt Q92993 (whole entry, looked up): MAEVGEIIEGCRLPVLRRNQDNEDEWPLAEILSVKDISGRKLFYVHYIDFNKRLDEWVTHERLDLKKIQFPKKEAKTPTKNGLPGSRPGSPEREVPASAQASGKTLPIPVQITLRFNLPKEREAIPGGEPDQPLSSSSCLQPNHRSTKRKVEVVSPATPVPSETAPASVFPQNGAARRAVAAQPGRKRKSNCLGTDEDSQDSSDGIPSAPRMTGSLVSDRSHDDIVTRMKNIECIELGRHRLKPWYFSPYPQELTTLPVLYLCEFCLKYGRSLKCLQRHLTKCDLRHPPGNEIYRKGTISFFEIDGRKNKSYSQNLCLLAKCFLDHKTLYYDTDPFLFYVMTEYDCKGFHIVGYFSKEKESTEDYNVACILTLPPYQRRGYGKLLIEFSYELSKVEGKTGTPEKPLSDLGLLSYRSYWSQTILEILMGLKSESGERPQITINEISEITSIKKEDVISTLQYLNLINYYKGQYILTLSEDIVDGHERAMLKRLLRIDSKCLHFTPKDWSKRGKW
# Sequence of UniProt P28223 (whole entry, looked up): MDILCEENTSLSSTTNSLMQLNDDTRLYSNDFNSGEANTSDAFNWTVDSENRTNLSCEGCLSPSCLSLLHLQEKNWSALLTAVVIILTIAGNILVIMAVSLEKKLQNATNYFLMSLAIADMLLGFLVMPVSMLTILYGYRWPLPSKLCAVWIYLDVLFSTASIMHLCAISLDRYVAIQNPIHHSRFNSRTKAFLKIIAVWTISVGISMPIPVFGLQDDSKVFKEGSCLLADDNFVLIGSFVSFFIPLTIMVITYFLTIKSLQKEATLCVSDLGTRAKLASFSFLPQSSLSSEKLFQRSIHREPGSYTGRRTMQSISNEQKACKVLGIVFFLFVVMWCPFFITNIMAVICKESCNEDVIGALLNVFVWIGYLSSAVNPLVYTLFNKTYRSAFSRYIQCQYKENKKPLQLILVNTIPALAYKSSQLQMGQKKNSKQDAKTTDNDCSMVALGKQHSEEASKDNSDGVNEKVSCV
# Sequence of UniProt P49116 (whole entry, looked up): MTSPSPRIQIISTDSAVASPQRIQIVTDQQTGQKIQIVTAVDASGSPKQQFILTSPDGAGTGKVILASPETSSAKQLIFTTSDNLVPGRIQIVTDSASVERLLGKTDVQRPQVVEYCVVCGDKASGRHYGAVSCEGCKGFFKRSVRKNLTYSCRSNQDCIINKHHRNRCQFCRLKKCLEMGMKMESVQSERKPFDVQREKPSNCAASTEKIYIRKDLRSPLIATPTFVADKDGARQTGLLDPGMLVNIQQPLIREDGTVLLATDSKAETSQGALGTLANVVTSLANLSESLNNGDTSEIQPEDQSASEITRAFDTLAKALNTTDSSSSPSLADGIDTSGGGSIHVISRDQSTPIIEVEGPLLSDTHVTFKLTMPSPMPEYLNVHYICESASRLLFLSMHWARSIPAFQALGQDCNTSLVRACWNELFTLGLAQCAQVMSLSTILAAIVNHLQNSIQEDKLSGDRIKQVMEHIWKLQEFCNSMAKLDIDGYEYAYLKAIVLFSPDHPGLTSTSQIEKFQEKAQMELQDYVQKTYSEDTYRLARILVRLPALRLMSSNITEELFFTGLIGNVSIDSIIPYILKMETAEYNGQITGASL
# Sequence of UniProt P41143 (whole entry, looked up): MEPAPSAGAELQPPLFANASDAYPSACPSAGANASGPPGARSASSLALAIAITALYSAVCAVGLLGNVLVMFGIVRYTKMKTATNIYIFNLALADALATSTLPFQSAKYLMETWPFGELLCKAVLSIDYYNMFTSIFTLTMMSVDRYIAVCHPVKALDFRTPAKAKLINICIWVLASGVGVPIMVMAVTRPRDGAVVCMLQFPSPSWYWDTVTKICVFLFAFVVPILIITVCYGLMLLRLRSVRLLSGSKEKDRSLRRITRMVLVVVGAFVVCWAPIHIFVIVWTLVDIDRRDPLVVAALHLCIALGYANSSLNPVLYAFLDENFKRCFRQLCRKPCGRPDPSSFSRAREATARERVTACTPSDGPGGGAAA
SMILES,target,test,test system,setting,scale,quantity,value
CCC1(c2cccc(O)c2)CCCCN(C)C1 (stereo not shown),"Nuclear receptor subfamily 2 group C member 2, ligand-binding domain (Homo sapiens, UniProt P49116)",SPR imaging,,600 nM,,koff,8.68e-06 s⁻¹
O=C(O)c1nccnc1NC(=O)c1cccc2ccccc12,"Aspartate 1-decarboxylase (panD, Mycobacterium tuberculosis, UniProt P9WIL3)",,,concentration not given,reference: pyrazinoic acid,enzyme inhibition enhancement,1000 fold
Cl.O=C(N[C@H]1CC[C@@]2(O)[C@H]3Cc4ccc(O)c5c4[C@@]2(CCN3CC2CC2)[C@H]1O5)c1ccc(C(F)(F)F)s1,"Delta-type opioid receptor (OPRD1, Homo sapiens, UniProt P41143)",radioligand binding,CHO membranes,,reference: Ki µ over Ki δ,selectivity ratio,141
CC(C)c1ccc2c(c1)C1(CC2)C(=O)NC(=S)NC1=O,GABA-A receptor; alpha-1/beta-3/gamma-2,,,300 µM,,Emax,54%
CN1CC[C@@]2(C)c3cc(OC(=O)Nc4ccccc4)ccc3N(C)[C@@H]12,human nicotinic α2β2 receptor,radioligand binding,,"10 µM, together with: [3H]epibatidine",,inhibition,3.4%
O=C1NC(=O)C2(CCc3ccccc32)C(=O)N1,GABA-A receptor; alpha-1/beta-3/gamma-2,,,300 µM,,Emax,-2%
CCOC(F)(F)c1nnc2cnc(-c3cnc(OCC(F)(F)F)c(F)c3)cn12,"Sodium channel protein type 2 subunit alpha (SCN2A, Homo sapiens, UniProt Q99250)","peak sodium current, blocker, patch clamp",,tonic block,,Hill slope,13700
CCCCCCC(C)(C)c1ccc([C@@H]2C[C@H](O)CC[C@H]2CCCO)c(O)c1,"Cannabinoid receptor 1 (CNR1, Homo sapiens, UniProt P21554, I267L/L193I/L359V)","cAMP inhibition, agonist, CAMYEL biosensor",,"triple mutant receptor, together with: forskolin 10 µM",reference: wild-type receptor,Emax,91.3 ± 1.8%
COc1ccc2c(c1)C1(CC2)C(=O)NC(=S)NC1=O,GABA-A receptor; alpha-1/beta-3/gamma-2,,,300 µM,,Emax,20%
Cc1ccc(C(=O)Nc2ccc(Oc3cc4cnn(C)c4cc3-c3cn[nH]c3)c(F)c2)c(=O)n1-c1ccc(F)cc1,"Hepatocyte growth factor receptor (MET, Homo sapiens, UniProt P08581, C1091S/C1146S/K1232C/L1195V)",,,concentration not given,reference: wild type,Kd fold change,≤ 1.5 fold
Cc1onc(O)c1C[C@H](N)C(=O)O,AMPA glutamate receptor (rat),radioligand binding,rat brain,1×10 µM,,inhibition,98.9%
CCOc1ccccc1C(=O)Nc1ccc(Cl)c(C(F)(F)F)c1,"Histone acetyltransferase KAT5 (KAT5, Homo sapiens, UniProt Q92993)",SPR,,0.07 µM,higher = more binding,SPR binding response,0.124 RU
CCC(NCCc1cc(OC)c(C#N)cc1OC)c1ccccc1O (stereo not shown),"5-hydroxytryptamine receptor 2A (HTR2A, Homo sapiens, UniProt P28223)",agonist,,,,Emax,89%
Oc1ccc2c3c1O[C@H]1[C@@H](O)CC[C@@]4(O)[C@@H](C2)N(CC2CCC2)CC[C@]314,"G protein-coupled receptor 88 (Homo sapiens, UniProt Q9GZN0)","β-arrestin recruitment, TANGO luminescence, item: GPR88",,concentration not given,reference: basal luminescence,log2 fold change,-0.118
CCCc1cc(O)c2c(c1)OC(C)(C)[C@@H]1CCC(C)=C[C@@H]21,"Transient receptor potential cation channel subfamily V member 3 (TRPV3, Homo sapiens, UniProt Q8NET8, N561A)","calcium uptake, agonist",HEK293S,"mutant N561A, site 1",,Hill coefficient,2.95 ± 0.42
c1ccc2cc([C@]34CNC[C@H]3C4)ccc2c1,"Sodium-dependent dopamine transporter (SLC6A3, Homo sapiens, UniProt Q01959, V152A)","inhibitor, [3H]dopamine uptake",,"10 µM, V152A mutant",reference: no inhibitor,dopamine uptake,6.53% and 3.03% and 4.6%

# Repeated from above:
SMILES,target,test,test system,setting,scale,quantity,value
Cl.O=C(N[C@H]1CC[C@@]2(O)[C@H]3Cc4ccc(O)c5c4[C@@]2(CCN3CC2CC2)[C@H]1O5)c1ccc(C(F)(F)F)s1,"Delta-type opioid receptor (OPRD1, Homo sapiens, UniProt P41143)",radioligand binding,CHO membranes,,reference: Ki µ over Ki δ,selectivity ratio,141
Cc1ccc(C(=O)Nc2ccc(Oc3cc4cnn(C)c4cc3-c3cn[nH]c3)c(F)c2)c(=O)n1-c1ccc(F)cc1,"Hepatocyte growth factor receptor (MET, Homo sapiens, UniProt P08581, C1091S/C1146S/K1232C/L1195V)",,,concentration not given,reference: wild type,Kd fold change,≤ 1.5 fold
c1ccc2cc([C@]34CNC[C@H]3C4)ccc2c1,"Sodium-dependent dopamine transporter (SLC6A3, Homo sapiens, UniProt Q01959, V152A)","inhibitor, [3H]dopamine uptake",,"10 µM, V152A mutant",reference: no inhibitor,dopamine uptake,6.53% and 3.03% and 4.6%
